Measured values from different studies.
Every numbered part comes from another study and shows a few of its results, in no order.

Study 1
Substance: PhoQ, residues 284 288 289 292 302 303 SSTLSG
Method: Sort-seq
Item: YFP reporter
Matrix: E. coli
Setting: PhoQ-PhoP variant library
With: 10 µM Mg2+
Relative to: high Mg2+ state
Reading: higher = stronger signaling
| target | fold induction |
| --- | --- |
| PhoP, residues 12 14 15 18 19 QYFSL (Escherichia coli, UniProt P23836) | 10.9 |
| PhoP, residues 12 14 15 18 19 NYFRM (Escherichia coli, UniProt P23836) | 7.89 |
| PhoP, residues 12 14 15 18 19 TQALL (Escherichia coli, UniProt P23836) | 10.3 |

Study 2
Target: Interferon regulatory factor 3, full length, phosphomimetic (IRF3, Homo sapiens, UniProt Q14653, residues 1-427, S386D/S396D/S398D/S402D/T404D/S405D)
Method: protein-binding microarray
Form: double-stranded DNA, one strand shown
Matrix: in vitro
Tested at: 2540 nM top
Setting: 60-bp whole probe
With: salmon DNA 0.4 mg/ml
Relative to: random background probes
Reading: higher = stronger binding
All sequences stand within: GCCTAGCAC … GTCTTGATTCGCTTGACGCTGCTG
Residues (chain): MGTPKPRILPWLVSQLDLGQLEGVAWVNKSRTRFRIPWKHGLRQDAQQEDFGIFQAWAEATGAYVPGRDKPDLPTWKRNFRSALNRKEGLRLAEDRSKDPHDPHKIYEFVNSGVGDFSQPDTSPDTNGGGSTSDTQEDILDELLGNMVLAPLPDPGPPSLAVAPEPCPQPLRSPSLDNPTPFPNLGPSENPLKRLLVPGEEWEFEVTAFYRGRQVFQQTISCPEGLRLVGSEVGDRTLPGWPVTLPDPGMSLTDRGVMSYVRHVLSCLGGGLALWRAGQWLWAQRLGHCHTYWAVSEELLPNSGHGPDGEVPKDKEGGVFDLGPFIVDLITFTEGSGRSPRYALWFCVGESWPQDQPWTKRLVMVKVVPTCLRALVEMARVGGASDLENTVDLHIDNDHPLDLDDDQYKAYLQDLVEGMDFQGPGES
| Strand | fitted relative affinity |
| --- | --- |
| GACGGTACCCTTTTCCTGACGTGCTAG | 3.9 z-score |
| TCATTTTTCTAATTGAAACTGTGCTAG | 2.38 z-score |
| GACGGACTGCTGCTGCTGACGTGCTAG | -0.961 z-score |
| GACTCTTCAGCACTCGGGTCGTGCTAG | -0.126 z-score |
| GACGGACTGGGGTATCGAGACGTGCTA | -0.798 z-score |

Study 3
Target: Myc proto-oncogene protein, bHLH-zipper, MAX partner unstated (MYC, Homo sapiens, UniProt P01106, residues 368-449)
Sequence of UniProt P01106 (368-449, looked up): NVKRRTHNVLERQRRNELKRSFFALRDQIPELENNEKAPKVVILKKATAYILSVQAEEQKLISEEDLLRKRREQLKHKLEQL
Method: protein-binding microarray
Form: double-stranded DNA, one strand shown
Matrix: in vitro
Tested at: not given
Setting: k-mer, scored over probes, only values ≥0.25
Reading: higher = stronger binding
| Strand | E-score |
| --- | --- |
| ATATGGCA | 0.296 |
| ACCGGCAC | 0.261 |
| CCATATGC | 0.401 |
| AGTACCAC | 0.293 |

Study 4
Target: Sal-like protein 4, full length isoform A (SALL4, Homo sapiens, UniProt Q9UJQ4, residues 1-1053)
Sequence of UniProt Q9UJQ4 (whole entry, looked up): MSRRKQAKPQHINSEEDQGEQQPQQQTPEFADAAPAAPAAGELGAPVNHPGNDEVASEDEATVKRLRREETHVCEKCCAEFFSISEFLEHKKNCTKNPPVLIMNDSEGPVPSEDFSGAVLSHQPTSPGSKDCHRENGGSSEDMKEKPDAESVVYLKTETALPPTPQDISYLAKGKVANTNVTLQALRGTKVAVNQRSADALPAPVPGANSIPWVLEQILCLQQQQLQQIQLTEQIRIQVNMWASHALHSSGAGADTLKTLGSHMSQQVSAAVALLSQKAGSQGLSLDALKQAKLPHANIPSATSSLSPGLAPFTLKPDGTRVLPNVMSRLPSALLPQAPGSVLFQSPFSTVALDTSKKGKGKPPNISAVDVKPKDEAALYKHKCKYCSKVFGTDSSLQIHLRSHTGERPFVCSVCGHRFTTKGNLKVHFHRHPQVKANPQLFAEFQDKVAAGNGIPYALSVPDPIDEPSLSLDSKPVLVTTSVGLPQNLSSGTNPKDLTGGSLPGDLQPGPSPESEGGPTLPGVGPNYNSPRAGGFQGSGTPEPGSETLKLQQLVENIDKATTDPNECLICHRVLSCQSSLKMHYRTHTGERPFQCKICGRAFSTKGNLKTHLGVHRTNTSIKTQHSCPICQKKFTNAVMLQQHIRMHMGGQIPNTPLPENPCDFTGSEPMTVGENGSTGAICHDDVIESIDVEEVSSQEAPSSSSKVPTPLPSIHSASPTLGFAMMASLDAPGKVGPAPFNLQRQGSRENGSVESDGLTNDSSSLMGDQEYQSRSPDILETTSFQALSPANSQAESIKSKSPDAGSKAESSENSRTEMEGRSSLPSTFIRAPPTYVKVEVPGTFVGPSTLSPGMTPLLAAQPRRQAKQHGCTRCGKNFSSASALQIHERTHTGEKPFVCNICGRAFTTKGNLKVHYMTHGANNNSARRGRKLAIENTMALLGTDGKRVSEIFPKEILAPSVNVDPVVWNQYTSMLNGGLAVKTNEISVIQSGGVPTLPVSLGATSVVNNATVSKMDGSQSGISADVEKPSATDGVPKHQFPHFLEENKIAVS
Method: universal PBM
Form: double-stranded DNA, one strand shown
Matrix: in vitro
Tested at: 600 nM
Setting: 8-mer, flanks averaged, mean of replicates
Reading: higher = stronger binding
| Strand | E-score |
| --- | --- |
| CGGGCGTC | -0.274 |
| AGAAGCAC | -0.0695 |
| CAATGAGG | -0.193 |
| CAGTTAGC | -0.123 |
| CTGCAAAA | 0.223 |

Some of these lines once more (study 3):
| Strand | E-score |
| --- | --- |
| ATATGGCA | 0.296 |
